Measurements collected from several papers.
Several values in a cell are separate wells, animals, samples, runs or records. Numbers after ± are the reported error.
rep nsp3 macrodomain: Replicase polyprotein 1ab, nsp3 macrodomain (rep, Severe acute respiratory syndrome coronavirus 2, UniProt P0DTD1)
rep nsp14 methyltransferase: Replicase polyprotein 1ab, nsp14 methyltransferase (rep, Severe acute respiratory syndrome coronavirus 2, UniProt P0DTD1)
rep papain-like protease: Replicase polyprotein 1ab, papain-like protease (rep, Severe acute respiratory syndrome coronavirus 2, UniProt P0DTD1)
rep main protease: Replicase polyprotein 1ab, main protease (rep, Severe acute respiratory syndrome coronavirus 2, UniProt P0DTD1)

CCOc1cccc(NC(=O)CSc2cn(C(=O)OC(C)(C)C)c3ccccc23)c1 has an EC50 ratio of 1.21 (Replicase polyprotein 1ab, nsp12 with nsp14/nsp10 (rep, Severe acute respiratory syndrome coronavirus 2, UniProt P0DTD1); SARS-CoV-2 RdRp activity, CoV-Gluc reporter; HEK293T; relative to: with nsp14/nsp10 over nsp12 alone).
CC(=O)Nc1ccc(S(=O)(=O)NNc2ncnc3sccc23)cc1: ADP-ribosylhydrolase inhibition “inhibited” (rep nsp3 macrodomain; enzyme activity, inhibitor, ADPr-Glo; concentration not given, SARS-CoV-2).
The Hill slope of NC(Cc1cc(O)c(O)cc1O)C(=O)O (racemic) is reported as 0.74 ± 0.1 (Replicase polyprotein 1ab, nsp14 N7-methyltransferase (rep, Severe acute respiratory syndrome coronavirus 2, UniProt P0DTD1); N7-methyltransferase activity, inhibitor, Py-FLINT).
Under “lipophilic ligand efficiency”, CC1CC(c2ccc(C(=O)NS(C)(=O)=O)cc2)=NN1c1ccc(C#N)c(Cl)c1 (stereo not drawn) is recorded as 2.1 (rep nsp14 methyltransferase).
For Cc1ccc(OCCN(C)C)cc1C(=O)N[C@H](C)c1cc(-c2ccco2)nc2ccccc12, “GFP/mCherry signal ratio” read 0 and 64.7 and 83.4 and 72.9 (rep papain-like protease; reporter gene, cell-based).
COC(=O)C(=O)/C(=C\c1ccc(-c2ccccc2[N+](=O)[O-])o1)C(=O)c1ccccc1 has a Vmax of 33.1 ± 2.8 RFU/s (rep main protease; enzyme activity, inhibitor; 5 µM).
CNC(=O)CC[C@H](Cc1ccccc1)NC(=O)[C@@H](Cc1ccc(Cl)cc1Cl)NC(=O)[C@H](N)Cc1ccccc1[N+](=O)[O-] gave a remaining activity of 101% (rep main protease; 0.5229 µM).
With O=C(O)CNC(=O)c1ccccc1[Se][Se]c1ccccc1C(=O)NCC(=O)O the inhibition was 98.8% and 103% (rep main protease; enzyme activity, inhibitor; 40 µM).
Cc1ccc(O[C@H]2CCN(C)C2)cc1C(=O)N[C@H](C)c1cc(-c2cnn(C)c2)nc2ccccc12 — result for “GFP/mCherry signal ratio”: 30.6 and -0.212 and 3.21 and 30.7 and 1.32 and -1.29 (rep papain-like protease; reporter gene, cell-based).
CC(NC(=O)C(Cc1ccccc1)NC(=O)OCc1ccccc1)C(=O)CF (stereo not drawn) gave a maximum inhibition of 88.7% (rep main protease; 3CL protease activity).
O=c1oc2cc(O)ccc2c2cc(O)c(O)cc12: “binding efficiency index” 21.2 (rep main protease).
O=C(NCCc1cccc(F)c1)[C@@H](c1cncnc1)N(C(=O)[C@@H](F)Cl)c1ccc(S(F)(F)(F)(F)F)cc1 gave a kinact of 0.0011 s⁻¹ (rep main protease; enzyme activity, inhibitor).
With CC1CCc2c(sc3ncnc(Sc4nnc(CN5CCCC5)o4)c23)C1 (stereo not drawn) the Hill slope was 1.27 (rep main protease; protease activity, SAMDI-MS).
Nc1ccn([C@@H]2O[C@H](COP(=O)(O)OP(=O)(O)OP(=O)(O)O)[C@@H](O)[C@@H]2O)c(=O)n1 gave a Vmax of 0.94 fraction per time (Replicase polyprotein 1ab, nsp12 RdRp (rep, Severe acute respiratory syndrome coronavirus 2, UniProt P0DTD1); nucleotide incorporation, substrate).
The inhibition of COC(=O)[C@H](C)NC(=O)c1ccccc1[Se][Se]c1ccccc1C(=O)N[C@@H](C)C(=O)OC is reported as 106% (rep main protease; enzyme activity, inhibitor; 40 µM, mean of repeats).
The kon of CC(=O)N[C@@H](Cc1ccc(O)cc1)C(=O)N[C@@H](CCCNC(=N)N)C(=O)N[C@@H](Cc1ccccc1)C(=O)N[C@H]1CCC[C@@H]1C(=O)N[C@@H](CCCNC(=N)N)C(=O)N[C@@H](CC(N)=O)C(=O)N[C@H]1CCC[C@@H]1C(=O)N[C@H](C(=O)N[C@@H](Cc1ccccc1)C(=O)N[C@H]1CCC[C@@H]1C(=O)N[C@@H](Cc1ccccc1)C(=O)N[C@@H](Cc1ccc(O)cc1)C(=O)N[C@H]1CCC[C@@H]1C(=O)N[C@H](C(=O)N[C@@H](CC(=O)O)C(N)=O)[C@@H](C)O)C(C)C is reported as 8e+07 M⁻¹ s⁻¹ (rep main protease; binding, SPR; pH 7.6).
For C[C@](C(=O)NC1CCC(F)(F)CC1)(c1cncnc1)N(C(=O)[C@H](F)Cl)c1ccc(OC(F)(F)F)cc1, the inhibition was 85.5% (rep main protease; enzyme activity, inhibitor; 0.103 µM).
COc1cc2c(cc1OC)-c1c(OC)c(OC)cc3c1[C@H](C2)N(C)CC3 — result for “relative STD saturation”: 44.4% (rep main protease; STD NMR, refers to: proton H-15; relative to: H-8 signal).
Cc1ccc(OCCN(C)C)cc1C(=O)N[C@H](C)c1cc(-c2cncs2)nc2ccccc12 — result for “GFP/mCherry signal ratio”: 30.8 and 29.6 and 81 and 69.2 and 71.2 and 54.3 (rep papain-like protease; reporter gene, cell-based).
With CC(C)CC(C(=O)N1CC2(CC1C#N)C(=O)Nc1ccccc12)N(C)C(=O)c1cc2c(F)cc(F)c(F)c2[nH]1 (stereo not drawn) the remaining activity was 0.18% (rep main protease; enzyme activity; concentration not given).
The remaining activity of CNC(=O)C[C@H](Cc1ccc(F)cc1)NC(=O)[C@@H](Cc1ccc(Cl)cc1Cl)NC(=O)[C@H](N)Cc1ccccc1C#N is reported as 13.7% (rep main protease; 3CL protease activity; 1 µM).
With N#Cc1cn([C@@H]2O[C@H](CSCC[C@H](N)C(=O)O)[C@@H](O)[C@H]2O)c2ncnc(N)c12 the Hill slope was 0.9 ± 0.4 (Replicase polyprotein 1ab, nsp16 with nsp10 (rep, Severe acute respiratory syndrome coronavirus 2, UniProt P0DTD1); nsp10-nsp16 methyltransferase activity, radiometric).
COc1cc(OC)cc(C(=O)N(CCC(=O)N2CCNCC2)Cc2cccc(Cl)c2)c1: ADP-ribosylhydrolase inhibition “inhibited” (rep nsp3 macrodomain; enzyme activity, inhibitor, ADPr-Glo; concentration not given, SARS-CoV-2).
For Cc1ccc(OCCN(C)C)cc1C(=O)N[C@H](C)c1cc(-c2cccnc2N2CCCC2)nc2ccccc12, “GFP/mCherry signal ratio” read 76.2 and 0 and 62 and 103 and 85 (rep papain-like protease; reporter gene, cell-based).
With CC1(C)C2CCC(CNC(=O)c3ccccc3[Se][Se]c3ccccc3C(=O)NCC3CCC4CC3C4(C)C)C1C2 (stereo not drawn) the inhibition was 66.4% and 71.6% (rep main protease; enzyme activity, inhibitor; 40 µM).
The remaining activity of CNC(=O)CC1CN(C(=O)c2ccc(C(F)(F)F)cn2)CCN1C(=O)c1cccnn1 (stereo not drawn) is reported as 95.1% (rep main protease; 0.0001693 µM).
For N#C[C@@]1(c2ccc3c(N)ncnn23)O[C@H](CCl)[C@@H](O)[C@H]1O, “initial substrate decay rate” read 0.093 µM/min and 0.17 µM/min (rep nsp3 macrodomain; substrate).
CCC1c2ccsc2CCN1C(=O)Cn1nnc2ccccc21 (stereo not drawn) gave a Hill slope of 1.54 and 1.55 (rep main protease; protease activity, SAMDI-MS).
C=CC(=O)N(c1ccc(C(C)(C)C)cc1)C(C(=O)NCCc1cccc(F)c1)c1cccnc1 (stereo not drawn) has a kinact of 0.00082 s⁻¹ (rep main protease; enzyme activity, inhibitor).
With CCOc1ccc(CN2CC[C@H]2C(=O)NC)cc1-c1cccc(C(=O)NC[C@@H]2COC(C)(C)O2)c1 the remaining activity was 103% (rep main protease; 3CL protease activity; 0.04576 µM).
O=C(Oc1cncc(Cl)c1)c1ccc2[nH]ccc2c1 gave a kinact/Ki of 3210 M⁻¹ s⁻¹ (rep main protease; inhibitor, biochemical).
The kinact/KI of O=C(CCc1ccccc1)NOC(=O)OCc1ccccc1 is reported as 6400 M⁻¹ s⁻¹ (rep main protease; enzyme inactivation, inhibitor; 1 to 30 µM).
Under “lipophilic ligand efficiency”, N#Cc1ccc(N2N=C(c3ccc(C(=O)O)cc3)CC2C2CCCC2)cc1Cl (stereo not drawn) is recorded as 0.7 (rep nsp14 methyltransferase).
CNC(=O)C[C@H](Cc1ccncc1)NC(=O)[C@@H](Cc1cccc(Br)c1)NC(=O)[C@@H](N)Cc1ccsc1 gave a remaining activity of 87.8% (rep main protease; 0.0001693 µM).
For COc1cc(C(=O)N(CCC(=O)N2CCNCC2)Cc2cccc(Cl)c2)cc(OC)c1OC, ADP-ribosylhydrolase inhibition read “inhibited” (rep nsp3 macrodomain; enzyme activity, inhibitor, ADPr-Glo; concentration not given, SARS-CoV-2).
C[C@](C(=O)NC1CCOCC1)(c1cncnc1)N(C(=O)[C@H](F)Cl)c1ccc(OC(F)(F)Cl)cc1 has an inhibition of 99.4% (rep main protease; enzyme activity, inhibitor; 1.111 µM).
The inhibition of CC1C(NC(=O)c2ccccc2[Se][Se]c2ccccc2C(=O)NC2CC3CC(C2C)C3(C)C)CC2CC1C2(C)C (stereo not drawn) is reported as 94% and 92.2% (rep main protease; enzyme activity, inhibitor; 40 µM).
The inhibition of O=C(NC1CCC(F)(F)CC1)C(c1cncnc1)N(C(=O)C(F)Cl)c1ccc(-c2cncs2)cc1 (stereo not drawn) is reported as 103% and 100% (rep main protease; enzyme activity; 0.926 µM).
For CC(C)C[C@@H]1NC(=O)[C@H](C(C)C)NC(=O)[C@H](C)NC(=O)[C@H](Cc2ccc(O)cc2)NC(=O)[C@H](CCC(N)=O)NC(=O)[C@H](CC(C)C)NC(=O)[C@@H](Cc2ccc(O)cc2)NC(=O)CSC[C@@H](C(N)=O)NC(=O)[C@H](CCC(=O)O)NC(=O)[C@H](CCCNC(=N)N)NC(=O)[C@H](CCCNC(=N)N)NC(=O)[C@H](CCCCN)NC(=O)[C@H](Cc2c[nH]cn2)NC(=O)[C@H](CCCNC(=N)N)NC1=O, activity read “inactive” (rep papain-like protease; SARS-CoV-2; 10 µM).

Repeated from above:
The remaining activity of CNC(=O)C[C@H](Cc1ccc(F)cc1)NC(=O)[C@@H](Cc1ccc(Cl)cc1Cl)NC(=O)[C@H](N)Cc1ccccc1C#N is reported as 13.7% (rep main protease; 3CL protease activity; 1 µM).
With N#Cc1cn([C@@H]2O[C@H](CSCC[C@H](N)C(=O)O)[C@@H](O)[C@H]2O)c2ncnc(N)c12 the Hill slope was 0.9 ± 0.4 (Replicase polyprotein 1ab, nsp16 with nsp10 (rep, Severe acute respiratory syndrome coronavirus 2, UniProt P0DTD1); nsp10-nsp16 methyltransferase activity, radiometric).
COc1cc(OC)cc(C(=O)N(CCC(=O)N2CCNCC2)Cc2cccc(Cl)c2)c1: ADP-ribosylhydrolase inhibition “inhibited” (rep nsp3 macrodomain; enzyme activity, inhibitor, ADPr-Glo; concentration not given, SARS-CoV-2).
